Measured values collected from several papers.
Each line is one published result; not all experiments were run side by side. ± gives the spread as reported.

| SMILES | target or system | assay | system | setting | how to read | measurement | value |
| --- | --- | --- | --- | --- | --- | --- | --- |
| Nc1ncc(-c2cc(-c3cnn(CC(F)(F)F)c3)ncc2F)nc1C(=O)NC1CNCC(F)C1 (stereo not shown) | PRKR | KINOMEscan competition binding | – | 1 µM | relative to: DMSO control | remaining binding | 82% |
| COC1OC(C)C(OC2OC(C)C(O)C(OS(=O)(=O)O)C2OS(=O)(=O)O)C(OS(=O)(=O)O)C1OS(=O)(=O)O (stereo not shown) | – | – | human plasma | 128 µg/mL | relative to: control | prothrombin time prolongation | 1.02 fold |
| CCCC(=O)N1CCN(c2ccc(NC(=O)c3ccc([N+](=O)[O-])o3)cc2Cl)CC1 | Mus musculus | gene silencing, high-content imaging | LDR reporter GFP cells | retest run 1 | – | AC50 | 2510 nM |
| CN1CCCNC(=O)c2cccc(c2)C(=O)NCCCN(C)CCCNc2cccc3c2C(=O)c2cccc(c2C3=O)NCCC1 | SAS | RNA-Seq, measured: THNSL1 mRNA | – | 1 µM, 6 h | relative to: untreated cells | log2 fold change | 1.43 |
| Cc1ncsc1-c1ccc(C(C)NC(=O)C2CC(O)CN2C(=O)C(NC(=O)CCCCCCCCCCN2CCCC(Nc3ncc(Cl)c(Nc4ccccc4S(=O)(=O)C(C)C)n3)C2)C(C)(C)C)cc1 (stereo not shown) | 22Rv1 | RNA-seq, measured: ZMYM4 mRNA | – | concentration not given | relative to: DMSO | log2 fold change | -1.06 |
| COC1CN([C@H]2CC[C@H]([C@@]3(C)Oc4c(Cl)cc(C(=O)NCc5c(SC)cc(C)[nH]c5=O)c(C)c4O3)CC2)C1 | – | RNA-seq, measured: SHANK3 | human, whole blood | dose not given, 24 h | relative to: pretreatment baseline | log2 fold change | 1.79 |
| C[n+]1cc(/C=N/NC(=O)c2cncc(C(=O)N/N=C/c3cc4ccccc4[n+](C)c3)n2)cc2ccccc21 | hp2 hairpin duplex DNA | FRET melting | – | 1 µM | – | ΔTm | 0.6 ± 0.1 °C |
| CC(C)(C)NCC(SS(=O)(=O)O)c1ccccc1 (stereo not shown) | – | – | Swiss Webster mice, Schistosoma mansoni-infected | 600 mg/kg single dose on day 7 post-infection, perfusion day 44 post-infection | – | spleen weight | 0.33 g |
| O=C(N/N=C/c1ccc(C[n+]2ccccc2)cc1)c1cccc(C(=O)N/N=C/c2ccc(C[n+]3ccccc3)cc2)n1 | hp2 hairpin duplex DNA | FRET melting | – | 1 µM, together with: ds26 10 µM | – | ΔTm | 0.7 ± 0.2 °C |
| CNS(=O)(=O)Nc1nccc(Cc2c(C)c3ccc(Oc4ncccc4F)cc3oc2=O)c1F | PC-9 | cell viability | – | 7 days | – | IC50 | 179 nM |
| CC[n+]1cccc2cc(/C=N/NC(=O)c3cc(C(=O)N/N=C/c4ccc5c(ccc[n+]5CC)c4)ncn3)ccc21 | hp2 hairpin duplex DNA | FRET melting | – | 1 µM | – | ΔTm | 1.6 ± 0.5 °C |
| O=C(NN1C(=O)c2ccccc2NC1c1ccc([N+](=O)[O-])o1)c1ccc([N+](=O)[O-])cc1 (stereo not shown) | Mus musculus | gene silencing, high-content imaging | LDR reporter GFP cells | confirmation, mean of two runs | – | EC50 | 31600 nM |
| O=C(N/N=C/c1ccc(C[n+]2ccccc2)cc1)c1ccc2ccc(C(=O)N/N=C/c3ccc(C[n+]4ccccc4)cc3)nc2n1 | hp2 hairpin duplex DNA | FRET melting | – | 1 µM | – | ΔTm | 0.5 ± 0.2 °C |
| C=CC(=O)Nc1cccc(Cn2ncc3cnc(Nc4cnn(CCOC)c4)nc32)c1 | ROS1 human | binding, KINOMEscan | – | 100 nM | lower = stronger binding | percent of control | 61% |
| COc1nc(Nc2nc(O)c3ccccc3n2)nc2ccc(C)cc12 | Mus musculus | gene silencing, high-content imaging | LDR reporter GFP cells | 30 h, confirmation, mean of two runs | – | Emax | 39% |
| O=C(N/N=C/c1ccc2c(ccc[n+]2Cc2ccccc2)c1)c1cccc(C(=O)N/N=C/c2ccc3c(ccc[n+]3Cc3ccccc3)c2)c1 | hp2 hairpin duplex DNA | FRET melting | – | 1 µM | – | ΔTm | 1.6 ± 0.1 °C |

Repeated from above:
| SMILES | target or system | assay | system | setting | how to read | measurement | value |
| --- | --- | --- | --- | --- | --- | --- | --- |
| O=C(N/N=C/c1ccc(C[n+]2ccccc2)cc1)c1ccc2ccc(C(=O)N/N=C/c3ccc(C[n+]4ccccc4)cc3)nc2n1 | hp2 hairpin duplex DNA | FRET melting | – | 1 µM | – | ΔTm | 0.5 ± 0.2 °C |
| COC1OC(C)C(OC2OC(C)C(O)C(OS(=O)(=O)O)C2OS(=O)(=O)O)C(OS(=O)(=O)O)C1OS(=O)(=O)O (stereo not shown) | – | – | human plasma | 128 µg/mL | relative to: control | prothrombin time prolongation | 1.02 fold |
